Experimental data of several laboratories.
Numbered parts are unrelated; each lists some results of a single study. Positions count from the first letter of the parent shown.

Block 1
Target: RNA binding protein fox-1 homolog 2, RRM domain, GST-SBP tag (RBFOX2, Homo sapiens, UniProt O43251-10, residues 100-194)
Technique: RNA Bind-n-Seq
Molecule type: RNA
Matrix: in vitro
Tested at: 365 nM
Notes: natural RNA segment, single round, ends assumed
Relative to: no-protein control
Direction: higher = stronger binding
Measurement: RBNS enrichment (R)
All sequences stand within: GGGAGUUCUACAGUCCGACGAUC … UGGAAUUCUCGGGUGCCAA
Target sequence (chain): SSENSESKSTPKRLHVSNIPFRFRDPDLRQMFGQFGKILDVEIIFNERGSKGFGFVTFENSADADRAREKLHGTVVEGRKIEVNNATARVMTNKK
Sequence = AUUAUUACAACCAUGUACAAAGGGACUCCACUCCACUGUCCCUGUACAAGGACUUUUGACAGUUUAGUGCUUAGUAACUAGUCUUAGUUUUCUUCCUUUUAGAAAAACUG; value = 0.37
Sequence = UAUAUAUAUACACAUAUAUAUGACAUGUAAGAGUCACUUUUAUUUAUCUGUCUUUGUUCACUUAUGAAGCCGGUAACUGCAGCAGUAUGUUGGUGAUGUCAUGAUGCACA; value = 0.518
Sequence = UGAACACUUCCUUGCUUUUUUCACAUGUUUUAUGGAAUUGUUCACCUGGUUUGAAAUAAUAAAAUGUAGAAAGAAAAAAAAUACCGAGAACUGAUGGGUAUUCUCUCCCA; value = 0.425
Sequence = AAUGGAAAGAAAGCAUCCCCCCACCCCCUCUGGGUUCGAGCGUUCACCGUCUCCGCACUGUGCCUGCGGGUCACCAGAGACAAGGCCUUCCUCAGGGACGUACAGGCUGU; value = 0.646
Sequence = AGAUAACUCACUAAGGGGUAAAAUAUGAAAUAUCAAAUCCUAAAAAGGAUAUUUAUAAUUAAAACAGCCUGUCAUGAGGCAACUGUGAGUGGAACAUCUGGGAAUUUGAG; value = 0.442
Sequence = GAAAUGGCGAGCAGACAUCUGUUCCAUGCACUAGUUAAUGCUACUGGCUCAGCAUAUACAAGUUAGCUUGCUUUAGGCAAGGGACCUUUCUUGUGAUGGACGUGCACUAC; value = 0.334
Sequence = ACCACCAGGGGCUCUGAACUGCAGCUGAUGUUAUCAGCAGGCCAUGCAUCCUGCUGCCAAGGGUGGACACGGCUGCAGACUUCUGGGGGAAUUGUCGCCUCCUGCUCUUU; value = 0.556
Sequence = AGUCUCUCUCGGAGGAAGCUGAGACAACAUACUCUGUCCAUACAUAAGCAGGCAGGGAGGGCCAUGCCACCUACCCUUGGCUAAACAGGGACAGUGAACACAUUUUGGUU; value = 0.501
Sequence = GUUGAACGGUAUGCAUGGUGAAAGGAAGCUGUCUGCCUCUGACCUUUCCCCAGGCUAUGAAAAGGAAAGUGAGGGAGCGAUCAUAGUGCUGAUUAUGUCUUCACAGACUG; value = 4.71
Sequence = AAUAACUAAGAGAUUCUUCUAGGGGUAGCUGGUGGUUGUGCCUUUUGUAGGCUGUUCCCUUUGCCUUAAACCUGAAGAUGUCUCCUCAAGCCUGUGGGCAGCAUGCCCAG; value = 4.48
Sequence = CCCCCCAAGCCCCAACAGGAAGAAGGGAAAGGUGGGGAAGCUGACGCUCACUCAGUGCCCACUGGGUGCCAGGCUCUGGGCUCAACCCUCUAAUAUCCACACAUUCCAUC; value = 0.226
Sequence = AUGUAUUUGUUUAUCGACACACUCACCCUUUCUGAGAUAGCAUUUUGCUCCCUUGAUCCCCCCCUUUUUUUGUCCCUUCGAAGAGUAAAUGCUUUGUAUUUCUUUCUUUA; value = 0.702

Block 2
Target: ABI1, truncated, D143A, DHFR fusion (Arabidopsis thaliana)
Technique: DHFR PCA, deep sequencing
Matrix: yeast
Notes: methotrexate growth selection, single substitutions
Together with: (+)-ABA 0.0091 µM
Relative to: wild-type fitted maximum
Direction: higher = stronger binding
Measurement: relative binding score
Parent: PYL1, truncated, DHFR fusion (Arabidopsis thaliana); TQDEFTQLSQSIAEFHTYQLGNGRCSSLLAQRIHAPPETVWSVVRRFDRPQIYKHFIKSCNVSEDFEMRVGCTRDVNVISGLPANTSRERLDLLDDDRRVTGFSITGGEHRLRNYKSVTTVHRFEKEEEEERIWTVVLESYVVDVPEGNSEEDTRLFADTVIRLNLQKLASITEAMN; partner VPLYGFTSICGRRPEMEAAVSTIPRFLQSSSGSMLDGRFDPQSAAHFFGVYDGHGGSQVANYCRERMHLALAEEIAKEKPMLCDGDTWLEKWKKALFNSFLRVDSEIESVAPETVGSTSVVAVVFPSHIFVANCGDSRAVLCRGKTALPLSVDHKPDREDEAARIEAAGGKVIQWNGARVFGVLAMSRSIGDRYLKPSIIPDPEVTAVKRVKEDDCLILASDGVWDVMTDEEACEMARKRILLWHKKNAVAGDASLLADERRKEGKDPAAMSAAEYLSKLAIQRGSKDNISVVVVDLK
Substitution = V40P; value = -1.42%
Substitution = V143P; value = -4.77%
Substitution = R155T; value = 2.2%
Substitution = T17P; value = -5.62%
Substitution = V161Y; value = 15.7%
Substitution = C72Y; value = 1.3%
Substitution = R155Q; value = 6.85%
Substitution = E127N; value = 31.8%
Substitution = E174L; value = -3.41%
Substitution = R24P; value = -1.55%
Substitution = T106C; value = 14.1%
Substitution = A170K; value = 48.7%
Substitution = S9D; value = 6.6%
Substitution = I172M; value = -0.752%
Substitution = V40I; value = -3.81%
Substitution = H122M; value = -0.831%
Substitution = Q2Y; value = 73.9%
Substitution = Y53W; value = 51.1%
Substitution = I52F; value = 9.1%
Substitution = E14D; value = 9.56%

Block 3
Target: Hepatocyte nuclear factor 3-alpha (Foxa1, Mus musculus, UniProt P35582, residues 1-468, full length assumed)
Technique: EMSA with sequencing
Molecule type: double-stranded DNA, one strand shown
Matrix: in vitro
Tested at: 10 and 20 nM
Notes: whole designed probe, mean of two concentrations, ends assumed
Relative to: negative control set to 0
Direction: higher = stronger binding
Measurement: normalised bound fraction
All sequences stand within: GTGAGCGGTGCCCATTGATGGGGAAC … TTTCACTGGGATCGTGGGGAC
Target sequence (chain): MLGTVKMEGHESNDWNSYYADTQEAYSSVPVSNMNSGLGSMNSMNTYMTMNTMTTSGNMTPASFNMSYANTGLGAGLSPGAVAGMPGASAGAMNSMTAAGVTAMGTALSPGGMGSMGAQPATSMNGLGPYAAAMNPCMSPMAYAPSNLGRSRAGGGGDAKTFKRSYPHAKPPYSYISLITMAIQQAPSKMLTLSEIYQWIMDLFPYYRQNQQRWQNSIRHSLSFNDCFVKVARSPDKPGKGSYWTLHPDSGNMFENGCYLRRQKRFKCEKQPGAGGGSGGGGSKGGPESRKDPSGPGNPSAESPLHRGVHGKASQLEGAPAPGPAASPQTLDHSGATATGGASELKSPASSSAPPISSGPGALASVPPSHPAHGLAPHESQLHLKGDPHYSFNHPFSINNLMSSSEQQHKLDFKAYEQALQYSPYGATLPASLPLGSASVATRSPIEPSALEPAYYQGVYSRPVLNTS
Sequence = CAAGGCTGCTCACCCACTTCTTTAACCATTCTTCAAAAAAGTGAGCTGTTGTTATTGAACTTTTTATTATTACTTAATTACAAGAAAAAACAAAGTAAACAACCAAAAAAATTATAGTGTTGAGAAAATGCCAAGGCTGTTCACCCACTTCTTTAACCATTCTTCAAATTTACCATATATATATTTTTTTGAC; value = 0.356 ratio
Sequence = TTTAAAAAGCATTTAACCTAAGTACTGTTTTAGAGGTGACAAATTTAGTGGTGTGTCCCCATGAGAAAATATTTCAAACATTACCAAAATTCCTTGTTTACATATTACATCATCGTTCCTAGAAAATATATCTAAATCCTCTATTTTAGGTATAAAAGCAAAAAAAAGTAAGGTTTCAGTTGATTTCACTTAA; value = 0.3 ratio
Sequence = ATCTTCCCCCTCTTCCTTGCCCCACCAGCTCACCTTCCCGGGTTATTTGCAGATAGGAAAATAAATAAAGCCGGCATTCGTTAACGCAGTTCACGCGCATACTGCTGTTTGCTCTGGATGAATCATGGTCCTTTGGCGACGCCAGGCTCCGGGAGAGCAAAGCACCGTGTCAGGGCCATGATCCGGGGTGGCC; value = 0.346 ratio
Sequence = AGCAGAACCAATATAATCATGATTGCATACACCCATACGTTAATATGTTGGTAAATTGGATTTGTTATATAAAGAAATTGCAATGAAGTGCTAAGTAATCTAATATCAGATTACATTATAATCTCTATGGCATGTTATATTTTAATTTCTATCTAGAAATGCATTGTGAAACCTAATAAAAAATTTGAAGCTT; value = 0.0255 ratio
Sequence = ACTCTGCCCGCTCCCCAAGGGTAGAAGTCACAGTGTGATTCCTGGGAGGGCATTGCTTCTTATCTATTACTTCATTCATATATAAATAAGACATGTTTGCACTTCCAAGGTGCACCCCCGCCCCGAGGAAGAGGGATGCTGACGTGTAGTAGACGCCTTCCACTCCCTTGCAGAGTGGCTGGGGAGGACAAGA; value = 0.225 ratio
Sequence = TATTATGAGCTGGACCTTGCTTAGCCCCAGCTGGGTTCTTGCTTCCCATCCTCCTCCCTGCCTGCTGCTTCCCTGAGTCATGCCCACTGCAATGTAAATAACAGGGCAGCTCCTAGGAGCTTGCAATGACAGCAATAGTGGGAGGAACAAGAGGGAAGGGAGCAACTGTTTTGTTTTGTTCGAAATGGTGTCT; value = 0.409 ratio
Sequence = CTATGTGCTGCCCCCAGAGGTGGAGTGTACAGAGGCAGGCAGGCTTCCTTGAGCTGCAGTGAGTTCCACCCAGTTTGAGCTTCCTGGCTGCTTTGTTTACCTACTCAAGCCTCAGCAAACGCGACGCCCCTCCCTCAGCCTGGCTGCTGTCTTGCAGTTAGATCTCAGACTGCTGTGCCAGCAGTGAGCAAGG; value = 0.421 ratio
Sequence = TCAGGTTGCAGTGAGCTCTGATCGTGCCACTGCACTCCAGCCTGTGTGACAGAGCAAGGGCCTGTCTCTAAAAACAAAACAAAACAAAGCAAAACAAACATGAGAAGTGCTGATTCATACCTTGCAAAGAGGTTTCATTCGGCAGCAAGTTGAAATTATCTACTGGTTTGTACATGAGCTAGCACTTCCTCTT; value = 0.418 ratio

Block 4
Target: CCNF, cyclin fold, Cln2 fusion (human)
Technique: yeast growth competition, sequencing
Matrix: yeast
Notes: strong parent motif
Relative to: not given
Direction: higher = stronger binding
Measurement: normalised enrichment score
Parent: CDKN1B docking peptide (human); PSACRNLFGPVDH
Substitution = L7G; value = 0.607
Substitution = D12I; value = 7.45
Substitution = G9L; value = 4.24
Substitution = D12L; value = 7.59
Substitution = C4R; value = 8.77
Substitution = L7F; value = 1.04
Substitution = L7I; value = 5.41
Substitution = S2R; value = 7.95
Substitution = G9Q; value = 3.98
Substitution = L7K; value = 0.743
Substitution = N6S; value = 5.76
Substitution = N6Q; value = 6.93
Substitution = R5A; value = -0.271
Substitution = P10L; value = 7.29
Substitution = R5W; value = -0.0753
Substitution = L7Q; value = 0.0641
Substitution = N6V; value = 6.78
Substitution = F8S; value = 0.421
Substitution = S2M; value = 5.59
Substitution = S2L; value = 5.57

Block 5
Target: Sal-like protein 4, full length isoform B (SALL4, Homo sapiens, UniProt Q9UJQ4-2, residues 1-616)
Technique: universal PBM
Molecule type: double-stranded DNA, one strand shown
Matrix: in vitro
Tested at: not given
Notes: 8-mer, flanks averaged, mean of replicates
Direction: higher = stronger binding
Measurement: E-score
Sequence = ACTGTGGA; value = -0.0267
Sequence = CCAATCCG; value = -0.151
Sequence = CCGTGAGA; value = -0.224
Sequence = CAAGGCTC; value = -0.321
Sequence = TAGTTTGA; value = 0.15
Sequence = ATACAAGC; value = 0.102
Sequence = ATCCGTCC; value = -0.156
Sequence = GTCCCTAA; value = 0.061
Sequence = CGCGGGGC; value = -0.343
Sequence = ACCTCAAG; value = -0.143
Sequence = CGAACGCA; value = -0.0253
Sequence = ATCGCTCG; value = -0.0832
Sequence = GATGTTTA; value = 0.127
Sequence = ACGGACTA; value = 0.0519
Sequence = AAGCACGA; value = 0.0153
Sequence = AACTGTCA; value = 0.104
Sequence = TATCCTGA; value = 0.144
Sequence = CTCACGCC; value = -0.349
Sequence = ATAGCGGG; value = -0.00154

Block 6
Target: ATF5, bZIP domain (human)
Technique: DHFR protein complementation
Matrix: yeast
Notes: single substitutions, most at no-binding floor
Relative to: wild-type JUN-FOS pair
Direction: higher = stronger binding
Measurement: binding fitness
Parent: JUN, bZIP domain (human); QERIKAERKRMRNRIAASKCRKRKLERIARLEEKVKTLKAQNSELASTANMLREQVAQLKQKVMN; partner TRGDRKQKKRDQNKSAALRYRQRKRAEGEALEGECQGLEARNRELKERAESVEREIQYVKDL
Substitution = L52P; value = -1.55 natural log
Substitution = R30T; value = -1.41 natural log
Substitution = L45A; value = -1.51 natural log
Substitution = L45K; value = -1.59 natural log
Substitution = A29V; value = -1.54 natural log
Substitution = R30Q; value = -1.53 natural log
Substitution = A57T; value = -1.42 natural log
Substitution = A40Q; value = -1.21 natural log
Substitution = T37M; value = -1.56 natural log
Substitution = K34G; value = -1.45 natural log
Substitution = E54Q; value = -1.44 natural log
Substitution = S47Y; value = -1.51 natural log
Substitution = K39S; value = -1.5 natural log
Substitution = E54M; value = -1.49 natural log
Substitution = S43W; value = -1.48 natural log
Substitution = T48M; value = -1.55 natural log
Substitution = A29F; value = -1.46 natural log
Substitution = I28S; value = -1.48 natural log
